# Results gathered from unrelated publications.
# Lines come from different studies, so protocols differ. “And” joins repeats or separate records; there may be more than shown. Numbers after ± are the reported error.
# plsY: Glycerol-3-phosphate acyltransferase (plsY, Streptococcus pneumoniae, UniProt P0A4Q0)
# AVPR1B: Vasopressin V1b receptor (AVPR1B, Homo sapiens, UniProt P47901)
# Chain of UniProt P47901 (whole entry, looked up): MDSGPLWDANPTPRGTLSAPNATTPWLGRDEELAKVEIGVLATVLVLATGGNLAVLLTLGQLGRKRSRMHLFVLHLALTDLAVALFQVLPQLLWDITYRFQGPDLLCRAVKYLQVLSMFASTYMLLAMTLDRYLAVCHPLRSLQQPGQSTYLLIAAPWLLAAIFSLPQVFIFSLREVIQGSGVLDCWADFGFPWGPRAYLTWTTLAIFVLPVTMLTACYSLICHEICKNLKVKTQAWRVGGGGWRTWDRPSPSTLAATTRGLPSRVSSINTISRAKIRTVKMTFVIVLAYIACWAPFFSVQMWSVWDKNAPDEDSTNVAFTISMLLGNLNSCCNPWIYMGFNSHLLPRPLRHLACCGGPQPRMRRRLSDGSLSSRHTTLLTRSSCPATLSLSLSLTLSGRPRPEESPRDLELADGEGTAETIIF
# Trypanothione synthetase: Trypanothione synthetase (Trypanosoma brucei brucei, UniProt Q586P2)
# CHRM2: Muscarinic acetylcholine receptor M2 (CHRM2, Homo sapiens, UniProt P08172)
# Chain of UniProt P08172 (whole entry, looked up): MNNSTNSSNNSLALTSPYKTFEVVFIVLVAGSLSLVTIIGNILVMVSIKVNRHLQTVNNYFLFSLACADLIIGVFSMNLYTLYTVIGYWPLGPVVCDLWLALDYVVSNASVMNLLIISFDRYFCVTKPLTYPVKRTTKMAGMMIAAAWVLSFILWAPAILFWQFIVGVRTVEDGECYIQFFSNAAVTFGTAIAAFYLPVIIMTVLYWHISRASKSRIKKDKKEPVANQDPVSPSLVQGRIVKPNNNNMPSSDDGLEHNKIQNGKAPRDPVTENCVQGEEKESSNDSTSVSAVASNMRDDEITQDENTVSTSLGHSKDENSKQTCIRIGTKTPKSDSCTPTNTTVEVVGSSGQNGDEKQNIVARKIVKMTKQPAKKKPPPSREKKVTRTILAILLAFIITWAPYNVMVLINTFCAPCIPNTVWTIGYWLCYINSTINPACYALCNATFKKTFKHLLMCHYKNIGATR
# Chain of UniProt P49674 (whole entry, looked up): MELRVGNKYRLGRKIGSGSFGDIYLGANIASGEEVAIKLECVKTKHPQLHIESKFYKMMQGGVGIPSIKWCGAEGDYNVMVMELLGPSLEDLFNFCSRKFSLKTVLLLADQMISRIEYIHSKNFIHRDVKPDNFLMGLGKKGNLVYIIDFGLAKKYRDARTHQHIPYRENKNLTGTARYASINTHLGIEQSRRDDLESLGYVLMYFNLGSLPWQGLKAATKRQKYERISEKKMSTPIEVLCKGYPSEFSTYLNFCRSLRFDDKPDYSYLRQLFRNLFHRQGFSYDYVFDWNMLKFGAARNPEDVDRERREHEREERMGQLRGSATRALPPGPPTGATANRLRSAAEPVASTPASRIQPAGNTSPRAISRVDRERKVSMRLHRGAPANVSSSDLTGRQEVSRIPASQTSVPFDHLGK
# Chain of UniProt P49841 (whole entry, looked up): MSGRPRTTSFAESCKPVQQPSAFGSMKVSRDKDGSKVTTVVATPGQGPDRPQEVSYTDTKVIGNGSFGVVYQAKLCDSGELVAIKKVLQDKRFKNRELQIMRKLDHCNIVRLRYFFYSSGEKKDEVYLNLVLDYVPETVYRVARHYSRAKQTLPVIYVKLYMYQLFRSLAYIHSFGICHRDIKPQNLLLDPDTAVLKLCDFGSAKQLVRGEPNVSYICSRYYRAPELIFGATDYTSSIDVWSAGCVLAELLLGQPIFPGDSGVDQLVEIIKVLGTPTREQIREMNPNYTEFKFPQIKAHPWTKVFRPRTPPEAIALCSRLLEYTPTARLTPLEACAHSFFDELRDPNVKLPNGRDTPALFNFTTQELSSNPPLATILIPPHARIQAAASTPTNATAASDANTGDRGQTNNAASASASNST
# Chain of UniProt P05979 (whole entry, looked up): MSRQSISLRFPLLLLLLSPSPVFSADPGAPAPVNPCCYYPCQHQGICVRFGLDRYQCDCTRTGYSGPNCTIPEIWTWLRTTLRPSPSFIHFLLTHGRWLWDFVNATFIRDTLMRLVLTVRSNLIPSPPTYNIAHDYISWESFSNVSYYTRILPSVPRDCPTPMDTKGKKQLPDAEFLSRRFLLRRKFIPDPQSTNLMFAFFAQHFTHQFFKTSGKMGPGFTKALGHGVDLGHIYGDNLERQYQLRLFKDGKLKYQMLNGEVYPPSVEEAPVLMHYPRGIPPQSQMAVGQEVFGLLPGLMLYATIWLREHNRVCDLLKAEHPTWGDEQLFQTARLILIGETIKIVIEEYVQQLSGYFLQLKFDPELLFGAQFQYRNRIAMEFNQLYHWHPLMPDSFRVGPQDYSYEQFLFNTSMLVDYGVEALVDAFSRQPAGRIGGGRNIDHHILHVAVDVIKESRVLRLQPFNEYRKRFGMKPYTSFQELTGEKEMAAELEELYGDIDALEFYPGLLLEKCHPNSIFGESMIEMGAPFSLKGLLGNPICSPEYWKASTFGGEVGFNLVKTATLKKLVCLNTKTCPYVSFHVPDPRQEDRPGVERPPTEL
# Chain of UniProt P26358 (whole entry, looked up): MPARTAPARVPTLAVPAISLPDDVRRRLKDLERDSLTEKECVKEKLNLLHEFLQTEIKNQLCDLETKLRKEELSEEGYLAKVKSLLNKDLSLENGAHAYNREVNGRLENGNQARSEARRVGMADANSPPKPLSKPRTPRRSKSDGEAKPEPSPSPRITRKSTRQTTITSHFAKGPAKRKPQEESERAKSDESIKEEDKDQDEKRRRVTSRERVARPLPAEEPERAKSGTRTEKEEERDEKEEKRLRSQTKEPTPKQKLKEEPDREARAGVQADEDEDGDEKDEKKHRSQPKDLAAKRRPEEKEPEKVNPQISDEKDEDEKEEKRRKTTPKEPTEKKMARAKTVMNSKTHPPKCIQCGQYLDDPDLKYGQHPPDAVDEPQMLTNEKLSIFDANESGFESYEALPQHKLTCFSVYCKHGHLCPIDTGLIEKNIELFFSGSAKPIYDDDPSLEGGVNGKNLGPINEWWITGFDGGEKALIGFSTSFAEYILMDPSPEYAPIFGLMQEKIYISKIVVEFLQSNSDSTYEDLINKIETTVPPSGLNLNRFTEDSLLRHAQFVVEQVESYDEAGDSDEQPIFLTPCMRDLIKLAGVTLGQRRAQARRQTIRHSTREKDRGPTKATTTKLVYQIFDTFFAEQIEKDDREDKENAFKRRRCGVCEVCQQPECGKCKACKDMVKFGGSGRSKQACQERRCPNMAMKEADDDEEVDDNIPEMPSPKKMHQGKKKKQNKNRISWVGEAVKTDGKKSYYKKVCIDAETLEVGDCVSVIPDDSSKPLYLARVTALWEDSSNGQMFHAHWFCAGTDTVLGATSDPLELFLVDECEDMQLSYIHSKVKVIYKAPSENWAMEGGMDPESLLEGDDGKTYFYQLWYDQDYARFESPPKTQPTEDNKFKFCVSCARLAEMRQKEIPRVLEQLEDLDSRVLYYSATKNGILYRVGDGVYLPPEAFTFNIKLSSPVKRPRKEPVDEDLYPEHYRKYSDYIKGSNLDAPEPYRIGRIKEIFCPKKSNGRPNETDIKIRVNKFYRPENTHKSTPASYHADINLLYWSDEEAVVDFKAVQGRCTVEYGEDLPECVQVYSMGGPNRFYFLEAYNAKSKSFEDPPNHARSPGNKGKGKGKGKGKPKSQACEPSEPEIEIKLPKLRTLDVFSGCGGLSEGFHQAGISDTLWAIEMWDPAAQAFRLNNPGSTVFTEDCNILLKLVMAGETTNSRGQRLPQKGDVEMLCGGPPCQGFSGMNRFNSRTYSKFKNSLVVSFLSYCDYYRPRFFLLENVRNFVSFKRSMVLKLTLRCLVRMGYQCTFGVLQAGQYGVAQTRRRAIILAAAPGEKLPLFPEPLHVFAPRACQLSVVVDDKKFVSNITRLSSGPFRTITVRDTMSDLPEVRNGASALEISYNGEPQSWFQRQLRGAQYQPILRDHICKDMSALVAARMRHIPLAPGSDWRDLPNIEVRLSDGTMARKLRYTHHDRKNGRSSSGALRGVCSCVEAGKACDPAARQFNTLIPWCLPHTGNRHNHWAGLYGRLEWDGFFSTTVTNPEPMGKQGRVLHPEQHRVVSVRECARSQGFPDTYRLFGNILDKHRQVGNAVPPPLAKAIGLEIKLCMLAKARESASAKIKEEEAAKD
# Chain of UniProt P50897 (whole entry, looked up): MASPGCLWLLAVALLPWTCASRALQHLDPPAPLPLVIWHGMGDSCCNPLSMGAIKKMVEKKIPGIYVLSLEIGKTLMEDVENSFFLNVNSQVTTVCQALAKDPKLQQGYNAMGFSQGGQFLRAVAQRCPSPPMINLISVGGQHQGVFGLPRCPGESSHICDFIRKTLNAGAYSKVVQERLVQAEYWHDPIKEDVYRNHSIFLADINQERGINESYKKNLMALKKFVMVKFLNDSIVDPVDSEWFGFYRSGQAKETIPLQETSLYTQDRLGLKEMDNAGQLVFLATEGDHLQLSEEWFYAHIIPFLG
# Chain of UniProt P49238 (whole entry, looked up): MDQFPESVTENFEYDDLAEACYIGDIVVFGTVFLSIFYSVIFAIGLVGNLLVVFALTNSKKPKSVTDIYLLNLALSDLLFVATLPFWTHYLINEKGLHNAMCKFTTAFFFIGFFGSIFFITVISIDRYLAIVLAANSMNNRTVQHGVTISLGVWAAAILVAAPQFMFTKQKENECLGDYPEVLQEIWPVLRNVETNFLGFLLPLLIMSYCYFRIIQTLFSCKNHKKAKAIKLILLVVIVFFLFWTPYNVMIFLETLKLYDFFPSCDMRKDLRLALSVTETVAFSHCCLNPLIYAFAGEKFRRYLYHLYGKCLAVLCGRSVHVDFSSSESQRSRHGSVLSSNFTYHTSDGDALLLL
SMILES,target,test,setting,inhibition
FC(F)(F)c1cccc(Nc2nc(NCCOc3ccccc3)nc3[nH]cnc23)c1,"Casein kinase I isoform epsilon (CSNK1E, Homo sapiens, UniProt P49674)","enzyme activity, inhibitor, Thermo Fisher kinase screening",5 µM,20% and 18%
CCCCCCCCCCCCCCCC(=O)NS(=O)(=O)Oc1ccc(OC)cc1,plsY,inhibitor,200 µM,100%
O=C(O)c1nccnc1NC(=O)c1cccc2ccccc12,"panD (Mycobacteroides abscessus, UniProt B1MGV7, E120A)",,200 µM,70.5%
CS(=O)(=O)c1ccc(OP(=O)(Oc2ccc(S(C)(=O)=O)cc2)C(NC(=O)OCc2ccccc2)c2c[nH]c3ccccc23)cc1 (racemic),"Structural polyprotein, capsid protease (O'nyong-nyong virus, UniProt P22056)","protease activity, irreversible covalent inhibitor","100 µM, 30 °C, CP Δ2 construct, 1% DMSO, with: H-Gly-Glu-Ser-Glu-Val-Trp-ACC, 50 µM",62.8 ± 0.2%
O=C(CCCCC1CCCCC1)NP(=O)(O)O,plsY,inhibitor,200 µM,18%
COc1cc2c(NC3CCN(C)CC3)cc(-c3ccc(C)o3)nc2cc1OCCCN1CCCC1,"DNA (cytosine-5)-methyltransferase 1 (DNMT1, Homo sapiens, UniProt P26358)",enzyme activity,1234.57 nM,13%
O=[N+]([O-])c1ccc(O)c([N+](=O)[O-])c1,"Palmitoyl-protein thioesterase 1 (Homo sapiens, UniProt P50897)",Spectrum Collection screen,"concentration not given, with: substrate 20 µM",87.9%
O=C(Nc1cccnn1)N1CCC(=Cc2cccc(Oc3ccc(C(F)(F)F)cn3)c2)CC1,AVPR1B,binding,"50 µM, with: [3H][Arg8]vasopressin",18%
CCc1cc(=O)[nH]c(-n2nc(C)cc2NC(=O)c2ccc(C)c(C)c2)n1,"Tyrosine-protein kinase Lck (LCK, Homo sapiens, UniProt P06239)",radiometric kinase,10 µM,no inhibition
CN(CCN1CCC(OC(=O)Nc2ccccc2-c2ccccc2)CC1)C(=O)c1ccc(CN2CCC(C(N)=O)CC2)cc1,rat opioid receptor non-selective,radioligand binding,"1 µM, with: [3H]naloxone 1.0 nM",12%
NCCCC[C@H](N)C(=O)O,"Cationic amino acid transporter 8 (NPT1, Plasmodium vivax, UniProt A5K9W3)",,100 µM,98.7%
CSc1ccc(/C=C2/C(C)=C(CC(=O)O)c3cc(F)ccc32)cc1,"Prostaglandin G/H synthase 1 (PTGS1, Ovis aries, UniProt P05979)","enzyme activity, inhibitor, fluorescence",10 µM,68 to 70%
CN(C(=O)n1cnc(-c2ccc[n+]([O-])c2)c1)C1CCCCC1,AVPR1B,radioligand binding,"50 µM, with: [3H]arginine vasopressin",10%
Cc1nc(-c2ccsc2)sc1C(=O)N1CCCc2ccc(F)cc21,Trypanothione synthetase,"enzyme activity, BIOMOL Green phosphate release",25 µM,31.8 ± 2.1%
CCCC(=O)CP(=O)(O)O,plsY,inhibitor,200 µM,18%
Cc1ncc(C)n2nc(/C=C/c3nc(N4CCCC4)cc(N4CCOCC4)n3)nc12,sigma receptor non-selective,radioligand binding,10 µM,-33%
O=C(Nc1cnccc1Cl)N1CCN(Cc2ccc3c(c2)OC(F)(F)O3)CC1,AVPR1B,binding,"10 µM, with: [3H][Arg8]vasopressin",13%
COCc1c(-c2cc3cc(C)cc(OC)c3s2)c2c(N)ncnn2c1CN1CCNC(=O)C1,AMPA receptor,radioligand binding,10 µM,0%
CCC(C)c1ccccc1OCC(=O)N1CCC(C(=O)Nc2ccc3c(c2)OCO3)CC1 (stereo not shown),Trypanothione synthetase,"enzyme activity, BIOMOL Green phosphate release",25 µM,37.1 ± 4.7%
Cn1cccc1-c1cccnc1,CHRM2,binding,50 µM,24.9%
CN1CCN(c2cc(-c3ccncc3)c(-c3ccc4ccccc4c3)nn2)CC1,"CX3C chemokine receptor 1 (CX3CR1, Homo sapiens, UniProt P49238)","antagonist, FLIPR",10 µM,9.3%
O=c1c(Cl)c(Cl)cnn1Cc1nc2ccccc2c2ccccc12,Trypanothione synthetase,"enzyme activity, BIOMOL Green phosphate release",25 µM,11.6 ± 4.6%
CCCCCCCC(=O)CP(=O)(O)O,plsY,inhibitor,200 µM,0%
O=C(N1CCC2(CC1)C[C@H](CN1CCCCS1(=O)=O)CCO2)C1(c2ccccc2)CCCC1,"DHX58 (Homo sapiens, UniProt Q96C10)","ATPase activity, inhibitor",50 µM,0%
CCCCCCCCCCCC(=O)NP(=O)(O)O,plsY,inhibitor,200 µM,30%
O=c1ccc2ccccc2o1,CHRM2,antagonist radioligand binding,"10 µM, SafetyScreen44",-6.65%
COc1ccc(N2C(=O)N(c3c(C)cccc3Cl)Cc3cnc(Nc4ccc(C5CCN(C)CC5)cc4OC)nc32)nc1,"BDNF/NT-3 growth factors receptor (NTRK2, Homo sapiens, UniProt Q16620)","kinase activity, inhibitor","0.5 µM, kinase TRKB",-0.05%
O=C(NCc1ccc(S(=O)(=O)N2CCOCC2)s1)c1cc(Cl)ccc1Cl,Trypanothione synthetase,"enzyme activity, BIOMOL Green phosphate release",25 µM,40.4 ± 5.8%
c1ccc(C(NCCNC(c2ccccc2)c2ccccc2)c2ccccc2)cc1,"Glycogen synthase kinase-3 beta (GSK3B, Homo sapiens, UniProt P49841)",activity,"10 µM, Eurofins selectivity panel",-3%
Cc1[nH]c2ccccc2c1CC(=O)NCc1ccc(COCC(F)(F)F)cc1,Trypanothione synthetase,"enzyme activity, BIOMOL Green phosphate release",25 µM,27.5 ± 9.5%
CC(C)CC(=O)OC[C@H]1O[C@@](C#N)(c2ccc3c(N)ncnn23)[C@H](O)[C@@H]1O,"Protein kinase C alpha type (PRKCA, Homo sapiens, UniProt P17252)",,20 µM,-8%
